Published values from different studies.
Parts stem from different laboratories: compare values within a part only. “And” joins repeats or separate records; there may be more than shown.

Study 1
Cell line: Gaucher fibroblasts L444P/L444P
Method: 4-MUG hydrolysis, cell lysate
Concentration: 0.1 µM
Relative to: DMSO
Measurement: GCase activity
CCOc1ccc2nc(Sc3nc(Nc4ccc(OC)cc4)nc(N4CCOCC4)n3)sc2c1: 98.4% and 94.6% and 93.1% and 101%
CCOc1ccc2nc(Sc3nc(N4CCOCC4)nc(N4CCOCC4)n3)sc2c1: 110% and 99.8% and 89.6% and 107%
Ic1ccc(Nc2nc(NCCN3CCOCC3)nc(NC3CCCCC3)n2)cc1: 105% and 100% and 90% and 88.2% and 91.2%
Ic1ccc(Nc2nc(NCCN3CCOCC3)nc(N3CC4CC3CO4)n2)cc1 (stereo not drawn): 112% and 97.7% and 99.7% and 101% and 93.2% and 104%
COc1ccc(Nc2nc(NCCN3CCOCC3)nc(N3CCOCC3)n2)cc1: 92.2% and 114% and 112% and 93.6% and 95.1% and 99.7%
Ic1ccc(Nc2nc(NCCN3CCOCC3)nc(N3CC4CCC(C3)O4)n2)cc1: 111% and 110% and 107% and 103% and 105%
Fc1ccc(Nc2nc(NCCN3CCOCC3)nc(N3CCOCC3)n2)cc1: 96% and 93.6% and 105% and 95.3% and 104% and 99.7%
Ic1ccc(Nc2nc(NCCN3CCCCC3)nc(N3CCOCC3)n2)cc1: 96.6% and 99.6% and 107% and 97.9% and 103% and 97.6%

Study 2
Compound: COCCCCCCC1CC2C(CCC3(C)C(O)CCC23)c2ccc(O)cc21 (stereo not drawn)
Measurement: mRNA level ratio
SK-OV-3; microarray, item: ACTA2; 50 µM; relative to: untreated: 0.733
A549; DNA microarray, item: CCL22; 10 µM; relative to: untreated cells: 1
A549; DNA microarray, item: ACTB; 50 µM; relative to: untreated cells: 0.94
PANC-1; microarray, item: GADD45A; 50 µM; relative to: untreated: 6.87
SK-OV-3; DNA microarray, item: GZMK; 10 µM; relative to: untreated cells: 23.7
SK-OV-3; DNA microarray, item: CCL11; 10 µM; relative to: untreated cells: 1
SK-OV-3; microarray, item: ADAMTS8; 10 µM; relative to: untreated: 0.635
A549; microarray, item: ISG20L1; 10 µM; relative to: untreated: 1.07
A549; DNA microarray, item: CCL11; 50 µM; relative to: untreated cells: 1
SK-OV-3; microarray, item: ADAMTS14; 10 µM; relative to: untreated: 1.33

Study 3
SMILES: CCN1/C(=C/C=C2\CCCC(/C=C/C3=[N+](CC)c4ccccc4C3(C)C)=C2NCCCCCCCCN2CCC(Nc3nc4ccccc4n3Cc3ccc(F)cc3)CC2)C(C)(C)c2ccccc21
Cell line: U-87 MG
Concentration: concentration not given
Relative to: DMSO
Measurement: log2 fold change
item: H2BC5 mRNA: 1.35
item: GEN1 mRNA: -1.46
item: ASAP3 mRNA: -1.3
item: FBXO43 mRNA: -1.74
item: FAXDC2 mRNA: -2
item: PRDM8 mRNA: -0.937
item: IGFN1 mRNA: -2.37
item: CSPG4 mRNA: -1.23
item: HACD1 mRNA: -1.25
item: PRKAB2 mRNA: 0.857
item: MEST mRNA: -2.92
item: KCNJ8 mRNA: -2.47
item: BCL10 mRNA: 1.23
item: PCDHB8 mRNA: -1.79
item: TBRG1 mRNA: 1.77
item: CCNF mRNA: -2.57

Study 4
Cell line: MDA-MB-231
Observed: cell viability
Method: CellCounting-Lite
Concentration: 666.7 nM
Temperature: 37 °C
Direction: higher = more viable cells
Measurement: luminescence signal
Cn1cc(-n2cnc3c(NCc4nc5cc(Cl)c(Cl)cc5[nH]4)nc(N4CCNCC4)nc32)cn1: 7900 a.u. and 10700 a.u. and 10500 a.u.
CCn1cnc2c(NCc3nc4cc(Cl)c(Cl)cc4[nH]3)nc(N3CCN(c4ccccn4)CC3)nc21: 209000 a.u. and 296000 a.u. and 265000 a.u.
CC(=O)N1CCN(c2nc(NCc3nc4cc(Cl)c(Cl)cc4[nH]3)c3ncn(C(C)C)c3n2)CC1: 452000 a.u. and 487000 a.u. and 483000 a.u.
CCCCOc1nc(NCc2nc3cc(Cl)c(Cl)cc3[nH]2)c2ncn(CC)c2n1: 16100 a.u. and 17200 a.u. and 22900 a.u.
CCn1cnc2c(NCc3nc4cc(Cl)c(Cl)cc4[nH]3)nc(N3CCN(C(=O)c4ccccc4)CC3)nc21: 15800 a.u. and 18000 a.u. and 15100 a.u.
CCn1cnc2c(NCc3nc4cc(Cl)c(Cl)cc4[nH]3)nc(N3CCN(C(=O)[C@H](C)NC(C)=O)CC3)nc21: 10900 a.u. and 14600 a.u. and 13400 a.u.
CCn1cnc2c(NCc3nc4cc(Cl)c(Cl)cc4[nH]3)nc(N3CCN(C(C)=O)CC3)nc21: 13600 a.u. and 16300 a.u. and 11800 a.u.
CCn1cnc2c(NCc3nc4cc(Cl)c(Cl)cc4[nH]3)nc(N3CCN(C(=O)c4ccncc4)CC3)nc21: 13800 a.u. and 11500 a.u. and 14400 a.u.
CCn1cnc2c(NCc3nc4cc(Cl)c(Cl)cc4[nH]3)nc(N3CCn4ncnc4C3)nc21: 18400 a.u. and 21300 a.u. and 18900 a.u.
CC(=O)N1CCN(c2nc(NCc3nc4cc(Cl)c(Cl)cc4[nH]3)c3ncn(-c4cnn(C)c4)c3n2)CC1: 45800 a.u. and 44300 a.u. and 34700 a.u.
CCn1cnc2c(NCc3nc4cc(Cl)c(Cl)cc4[nH]3)nc(N3CCN(C(=O)c4ccccn4)CC3)nc21: 13700 a.u. and 13600 a.u. and 14900 a.u.

Some of these lines once more (study 3):
item: H2BC5 mRNA: 1.35
item: KCNJ8 mRNA: -2.47
item: BCL10 mRNA: 1.23
item: PRDM8 mRNA: -0.937
item: CCNF mRNA: -2.57
item: FBXO43 mRNA: -1.74
